{"data": "Measurements pooled from the literature", "target": "PA-I galactophilic lectin (lecA, Pseudomonas aeruginosa, UniProt Q05097)", "observed": "binding", "Sequence (Q05097 1-122, as in one of the studies)": "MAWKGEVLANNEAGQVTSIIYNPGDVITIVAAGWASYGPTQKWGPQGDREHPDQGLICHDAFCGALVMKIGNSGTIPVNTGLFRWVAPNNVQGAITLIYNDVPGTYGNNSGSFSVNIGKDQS", "note": "Each line is one published result; not all experiments were run side by side. “And” joins repeats or separate records; there may be more than shown. ± gives the spread as reported."}
{"Structure (SMILES)": "COCCOCCOc1cc(-c2cn([C@H]3[C@H](O)[C@@H](O)[C@H](n4cc(-c5ccc(O[C@@H]6O[C@H](CO)[C@H](O)[C@H](O)[C@H]6O)cc5)nn4)O[C@@H]3CO)nn2)c(OCCOCCOC)cc1-c1cn([C@H]2[C@H](O)[C@@H](O)[C@H](n3cc(-c4ccc(O[C@@H]5O[C@H](CO)[C@H](O)[C@H](O)[C@H]5O)cc4)nn3)O[C@@H]2CO)nn1", "assay": "ITC", "Kd": "0.061 µM"}
{"Structure (SMILES)": "OC[C@H]1OC(O)[C@H](O)[C@@H](O)[C@H]1O (some centres unmarked)", "assay": "cyclic voltammetry sensor", "Kd": "67 ± 26 µM"}
{"Structure (SMILES)": "O=C(O)[C@H]1O[C@@H](c2cn([C@H]3[C@H](O)[C@@H](O)[C@H](n4cc([C@@H]5O[C@H](C(=O)O)[C@@H](n6cc(CO[C@@H]7O[C@H](CO)[C@H](O)[C@H](O)[C@H]7O)nn6)[C@H](O)[C@H]5O)nn4)O[C@@H]3CO)nn2)[C@H](O)[C@@H](O)[C@@H]1n1cc(CO[C@@H]2O[C@H](CO)[C@H](O)[C@H](O)[C@H]2O)nn1", "assay": "ITC", "Kd": "0.068 µM"}
{"Structure (SMILES)": "CC(C)C[C@H](NC(=O)[C@@H]1CCCN1C(=O)[C@H](CCCCN)NC(=O)c1ccc(O[C@@H]2O[C@H](CO)[C@H](O)[C@H](O)[C@H]2O)cc1)C(N)=O", "assay": "ITC", "setting": "pH 7.5", "Kd": "3 µM"}
{"Structure (SMILES)": "OC[C@H]1O[C@@H](OCc2cn([C@@H]3O[C@H](CO)[C@@H](n4cc(-c5ccc(-c6cn([C@H]7[C@H](O)[C@@H](O)[C@H](n8cc(CO[C@@H]9O[C@H](CO)[C@H](O)[C@H](O)[C@H]9O)nn8)O[C@@H]7CO)nn6)cc5)nn4)[C@H](O)[C@H]3O)nn2)[C@H](O)[C@@H](O)[C@H]1O", "assay": "cyclic voltammetry sensor", "Kd": "0.013 ± 0.005 µM"}
{"Structure (SMILES)": "[N-]=[N+]=NCCNC(=O)c1ccc(S[C@@H]2O[C@H](CO)[C@H](O)[C@H](O)[C@H]2O)cc1", "assay": "ITC", "Kd": "4.8 µM"}
{"Structure (SMILES)": "OC[C@H]1O[C@@H](OCc2cn([C@H]3[C@H](O)[C@@H](O)[C@H](c4cn([C@H]5[C@H](O)[C@@H](O)[C@H](n6cc([C@@H]7O[C@H](C[n+]8ccccc8)[C@@H](n8cc(CO[C@@H]9O[C@H](CO)[C@H](O)[C@H](O)[C@H]9O)nn8)[C@H](O)[C@H]7O)nn6)O[C@@H]5CO)nn4)O[C@@H]3C[n+]3ccccc3)nn2)[C@H](O)[C@@H](O)[C@H]1O", "assay": "ITC", "Kd": "0.089 µM"}
{"Structure (SMILES)": "O=C(COCCCCc1ccccc1)N[C@@H](Cc1cn(CCNC(=O)c2ccc(S[C@@H]3O[C@H](CO)[C@H](O)[C@H](O)[C@H]3O)cc2)nn1)C(=O)NCCO", "assay": "ITC", "Kd": "6.7 µM"}
{"Structure (SMILES)": "C#Cc1ccc(O[C@@H]2O[C@H](CO)[C@H](O)[C@H](O)[C@H]2O)cc1", "assay": "ITC", "setting": "pH 7.5", "Kd": "8.4 µM"}
{"Structure (SMILES)": "O=C(COCCCc1ccccc1)N[C@@H](Cc1cn(CCNC(=O)c2ccc(S[C@@H]3O[C@H](CO)[C@H](O)[C@H](O)[C@H]3O)cc2)nn1)C(=O)NCCO", "assay": "ITC", "Kd": "8.6 µM"}
{"Structure (SMILES)": "OC[C@H]1O[C@@H](OCc2cn([C@@H]3O[C@H](CO)[C@@H](n4cc(-c5ccc(-c6cn([C@H]7[C@H](O)[C@@H](O)[C@H](n8cc(CO[C@@H]9O[C@H](CO)[C@H](O)[C@H](O)[C@H]9O)nn8)O[C@@H]7CO)nn6)cc5)nn4)[C@H](O)[C@H]3O)nn2)[C@H](O)[C@@H](O)[C@H]1O", "assay": "ITC", "setting": "pH 7.5", "Kd": "0.012 µM and 0.012 to 0.013 µM"}
{"note": "Repeated from above:"}
{"Structure (SMILES)": "OC[C@H]1O[C@@H](OCc2cn([C@@H]3O[C@H](CO)[C@@H](n4cc(-c5ccc(-c6cn([C@H]7[C@H](O)[C@@H](O)[C@H](n8cc(CO[C@@H]9O[C@H](CO)[C@H](O)[C@H](O)[C@H]9O)nn8)O[C@@H]7CO)nn6)cc5)nn4)[C@H](O)[C@H]3O)nn2)[C@H](O)[C@@H](O)[C@H]1O", "assay": "cyclic voltammetry sensor", "Kd": "0.013 ± 0.005 µM"}
